Published values of several laboratories.
Numbered parts are unrelated; each lists some results of a single study.

Block 1
Target: RING finger protein unkempt homolog, zinc fingers 1-6, GST-SBP tag (UNK, Homo sapiens, UniProt Q9C0B0, residues 30-357)
Sequence of UniProt Q9C0B0 (30-357, looked up): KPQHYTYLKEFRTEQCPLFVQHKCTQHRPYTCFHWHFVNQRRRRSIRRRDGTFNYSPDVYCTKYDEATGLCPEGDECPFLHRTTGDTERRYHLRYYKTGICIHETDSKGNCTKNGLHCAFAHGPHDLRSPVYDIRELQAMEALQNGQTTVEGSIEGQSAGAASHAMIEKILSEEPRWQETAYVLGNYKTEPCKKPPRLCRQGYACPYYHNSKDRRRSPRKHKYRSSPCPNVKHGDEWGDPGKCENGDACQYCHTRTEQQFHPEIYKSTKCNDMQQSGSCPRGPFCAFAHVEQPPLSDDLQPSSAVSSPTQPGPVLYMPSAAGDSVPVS
Technique: RNA Bind-n-Seq
Molecule type: RNA
Sample: in vitro
Concentration: not given
Setting: RNA with constant flanks, ends assumed
Baseline: input RNA pool
Reading: higher = stronger binding
Constant ends, left off below: GGGAGUUCUACAGUCCGACGAUC … CAACAGAGGAUUGAGCAUCA
| Oligonucleotide | bound/input enrichment [ratio] |
| --- | --- |
| UAACGUUACAUAUCAUAGUGAAUGGUUUCCCCAGUGUAUAUGAAUGUUUUAAGUGUCUCCAACCGCUUAUGCAGUCUAGGAGCUUUCCAAUACUCAUUUAAUUAAGAUUUAAUCAUUUGC | 0.487 |
| CUUUUUGGCCAUCUUUUAAAACUUUUUUUUUUUUUUUUGAUCUAUAAAAUAGACAAGAGACCGUUCUACAAUGUCCAAGUCAUUCCAGCAGUCAUCUCUCGGUAGGGAUUCACAGGGUCA | 1.45 |
| GCCUCACCGUUAGACCAGAACGGAAGCUUCAAUGUUGUUAUUAAAGAGGAACCUCCCGAUGAUUAUGACUACGAACUUGGUGAGUGCCCAGAAGGGGUCACUGUGAAACAGGAAGAGACA | 0.447 |
| CUAAAUACCAUUCCAUUGUUUGUGCAGCUGCUUUAUUCUCCCAUUGAAAACAUCCAAAGAGCCGCUGCAGGGGUCCUCUGUGAACUUGCUCAGGACAAGGAAGCUGCAGAAGCUAUUGAA | 0.408 |
| GGAGGCUAUGGAGGCUAUGAUGAUUAUAAUGGCUAUAAUGAUGGCUAUGGAUUUGGUUCAGACCGAUUUGGAAGAGACCUCAAUUAUUGUUUUUCAGGAAUGUCUGACCACAGAUAUGGG | 0.203 |
| CCGUUUCUAGUAUAUUCCUGUAAAUGUCAGUUACUGAAAAUGAGUCCAUUGUAAGCCGUUCCGCUUGUUUUUUGCAAUGCCGGCCUCAACACCACAGAGUAAAAAAAAAAAAAAAACGGU | 0.903 |
| ACAUGUCACGUAGAAGAGACUCUCGGUGAGCAUUGCCUGUGAACUAAUAAUCCAGUGGACAACCGGCUUUGCACCAGGGUGAGGUCCAGACCUCUGCAGCACAGAGCUCCCGAUGGUUGG | 0.364 |
| GAGAGCAAUUUUAACCUUACUCAUUAUGGAACUCAGCAAAUCCCUCCUGCUUACAAAGAUUCCGCUGAGCCAUGGAUUCAGGUGUUUGGAAUGGAACUCGUUGGCUGCUUAUUUUCUAGA | 0.278 |
| AAAAUUUUAGAAGAGUUUAGGAAAACACAGCAGACAUCUCCUGAUAAAGUGGAUUAUGAAUACCGUGAACUCCUCUUAUAUCAGAAUCAAGUUCUUCGGGAAGCAGGUCUUUAUAGAGAA | 1.2 |
| AGGAUGAACCGGACAGAUUCCGAAAUAUAUGAGGAUGCUGUAGAACUUCAGCAGUUUUUUAUCCGAAUUCGUGAUGAACUCUGCAAAAAUGGAGAGAUCCUUCUUUCUCCAGCACUCAGC | 0.128 |
| CUAUGCCUAACAGAGCCCCAGUACAACUAUUGAGCAGAAUAGCUGUUUCCUGAGAAUUACCACCGCUCACUGGGACUGGCACUCCCUAGAUAGAAACUGAUCCCAGUAAUAAACUUUGAU | 1.53 |

Block 2
Target: Prothrombin, mature alpha-thrombin (F2, Homo sapiens, UniProt P00734)
Technique: aptamer microarray, sandwich
Molecule type: DNA with 2'F-ANA
Sample: in vitro
Concentration: 200 nM
Setting: whole 15-mer aptamer, many near background
Added: Cy3 exosite-II aptamer, 400 nM
Reading: higher = stronger binding
Oligonucleotide: GGTTGGTGTGGTTGG
| Modification | mean fluorescence intensity [a.u.] |
| --- | --- |
| 2'F-ANA at 1 4 5 6 9 10 13 15 | 45.6 |
| 2'F-ANA at 2 5 6 7 8 9 10 11 13 14 | 56.7 |
| 2'F-ANA at 1 2 4 5 7 11 | 49 |
| 2'F-ANA at 3 4 6 7 9 11 12 13 14 | 254 |
| 2'F-ANA at 2 3 5 7 8 11 12 13 | 165 |
| 2'F-ANA at 1 4 6 7 11 | 90.4 |
| 2'F-ANA at 1 3 4 6 7 11 | 159 |
| 2'F-ANA at 1 3 4 5 10 12 13 | 47.5 |
| 2'F-ANA at 2 4 6 8 12 13 14 | 111 |
| 2'F-ANA at 1 2 4 6 7 10 11 12 13 14 | 66.4 |
| 2'F-ANA at 3 5 6 13 14 | 94.5 |
| 2'F-ANA at 2 3 4 5 6 9 10 12 14 15 | 64.3 |
| 2'F-ANA at 2 5 11 12 14 | 50.4 |
| 2'F-ANA at 2 3 4 5 8 9 10 11 12 13 14 15 | 58.8 |
| 2'F-ANA at 2 3 4 7 8 9 14 15 | 309 |
| 2'F-ANA at 3 4 6 7 8 10 13 14 | 170 |
| 2'F-ANA at 1 2 3 6 7 8 10 11 | 65.6 |
| 2'F-ANA at 3 5 6 7 10 11 | 55.5 |
| 2'F-ANA at 3 6 7 9 10 11 14 | 378 |
| 2'F-ANA at 1 4 8 9 12 15 | 317 |
| 2'F-ANA at 1 2 3 4 5 7 8 9 10 12 14 15 | 46.4 |
| 2'F-ANA at 1 3 4 7 8 9 10 12 13 14 15 | 86.2 |
| 2'F-ANA at 1 2 3 7 8 9 10 11 12 15 | 86.1 |
| 2'F-ANA at 6 7 9 10 11 12 | 168 |
| 2'F-ANA at 4 6 8 13 14 | 79.1 |

Block 3
Target: RNA binding protein fox-1 homolog 2, RRM domain, GST-SBP tag (RBFOX2, Homo sapiens, UniProt O43251-10, residues 100-194)
Technique: RNA Bind-n-Seq
Molecule type: RNA
Sample: in vitro
Concentration: 365 nM
Setting: natural RNA segment, single round, ends assumed
Baseline: no-protein control
Reading: higher = stronger binding
Constant ends, left off below: GGGAGUUCUACAGUCCGACGAUC … UGGAAUUCUCGGGUGCCAA
| Oligonucleotide | RBNS enrichment (R) |
| --- | --- |
| GUACUAGUCUGUGUGGGACUGUACACACUUUAUUUACUUCGUUUUGGUUAAGUUGGCUUCUGUUUCUAGUUGAGGAGUUUCCUAAAAGUUCAUAACAGUGCCAUUGUCUU | 0.878 |
| AUCUCAAGAUCUUCCAGUGCAUAUACACUCACGUGGGAGAGCACUUCAUAUCCACCAAGCAGACAUAACCUAAGGAAUGUUAGUCCACUGAGCAGUUAAAAAACACUGAC | 0.445 |
| GCUUCAAUCUCUGAACACUGUAGACCCAUUAGAAGACUGUUCCGAUUGUUACAAAUUGUAGUGCCUGAAAACACUCUUAAGCUGAUUGUCUUAACAAAAUGAAAGUUCUC | 0.67 |
| GGUCCAUCUUUUACAUCUGGUACACACAACAGACGCUCAGUUGUUCUUAACCACUUUUGUCAUUUGUUUUUUGGAGUAGUUUUGAAAAGUGUUUUAUAUUGAGUGCACUU | 0.588 |
| UGAGCUACAUAUGGUCGUCAUUUUCUUCAAACUCUCAAAAUAGGAAAGUGGAAAUUUUUCUCCCCUAUAUAAAAUUAUUCUGCCUAGCAGAAAUGCCAGAAAUAAAUUAA | 0.579 |
| AUGUGACCACUCUGUCUUGUGUUUCCACAGCCUGCAAGUCAGUCCAGGAUGCUAACAUCUAAAAAUAGACUUAAAUCUCAUUGCUUACAAGCCUAAGAAUCUUUAGAGAA | 0.593 |
| CUCCCUCCCUCUAGUCUGCAUGUGUGCAAGGAUGUCAGACAGUCUCGACUUAGGAUGGACAGACACAGAGGGGUGCCUUCUAUGGUGCCAGCCUGUCAUGCCCAGUCCCU | 1.69 |
| CACUGCGGUUGUCCACGGUCACAUCUGCCCCAGUGCCUUUGUCCUUCCCUUGGGGCUUGCCGGCCAGACUUCUCUCCCCUGCGGCUCCCACCUCUGCCUGACCCCAGCCU | 0.616 |
| UUGAAAGGACGUUCGCCAAGGGCCGUGUGUAAAUACGAACUGCGCCAUGGAGAGGAGAGGCACUGCCGGAGCCCUUGCCAGAUCUCCCUCCCUCUCUCCGUGCAGUAGCU | 0.387 |
| UUUAUGUGGUUUAUUCCUGCAAGGUUGUUUUAAACUGAAAUAGAACUGCUAGUGUGAUUGGUUGAUCAGCAAAACAGCUGCUCUCAUUUUGUUUUGGAGGAACCCUGGUG | 1.55 |
| UCUCUCCCCUCCAUCCCCUCCCCUGUUCUGAGAACCAGGUUAUCAGCCAAACAAGAAUCAGUUGAUCCCCUUGCACUUUGGACACUUCAAUGGAGCCUGAGCUGCUUAGA | 0.816 |
| CAGCUUCAUUGGGCUGCUUCCUCUGAAGGAAUCCUUGAGAGUCAGUGAAUGUUCUAUCAGCAUGAGUGACCAGGGCAAGGACCUGCUGGACAGUGUGUGAUUGGUUCACC | 3.93 |

Block 4
Target: Sal-like protein 4, full length isoform B (SALL4, Homo sapiens, UniProt Q9UJQ4-2, residues 1-616)
Technique: universal PBM
Molecule type: double-stranded DNA, one strand shown
Sample: in vitro
Concentration: not given
Setting: 8-mer, flanks averaged, mean of replicates
Reading: higher = stronger binding
| Oligonucleotide | E-score |
| --- | --- |
| ATCTGACA | 0.0102 |
| GCAGCGAA | -0.155 |
| AGACCGTC | -0.17 |
| CTCTTCAA | -0.0546 |
| ACGCCCTG | -0.194 |
| ACACTGAC | -0.0808 |
| TCACGCGA | -0.0766 |
| ATGGCTTA | 0.0737 |
| AACCATCC | -0.0943 |
| ATGTTAAA | 0.322 |
| CTCCTGTC | 0.0225 |
| GATTTAGC | -0.101 |
| ACCTTCGC | -0.166 |
| CTAATCGC | -0.019 |
| ACGCCGAT | -0.0648 |
| AGGGCTAA | -0.00376 |
| AATGATAT | 0.373 |
| ATACCATA | 0.309 |
| TAGGTTCA | 0.065 |
| CATATTGG | 0.247 |
| GCTATAAA | 0.296 |
| CCAGCGTC | -0.321 |
| CTTGGAAC | -0.101 |

Block 5
Target: Histone acetyltransferase KAT6A, winged helix 1, GST fusion (KAT6A, Homo sapiens, UniProt Q92794, residues 1-85)
Technique: protein binding microarray
Molecule type: double-stranded DNA, one strand shown
Sample: in vitro
Concentration: not given
Setting: 8-mer, flanks averaged, mean of 2 arrays, mostly near background
Baseline: not given
Reading: higher = stronger binding
Residues (chain): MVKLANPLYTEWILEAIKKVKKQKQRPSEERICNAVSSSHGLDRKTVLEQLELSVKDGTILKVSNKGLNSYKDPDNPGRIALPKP
| Oligonucleotide | E-score |
| --- | --- |
| ACATGTTC | -0.103 |
| ATCGTCTC | -0.0557 |
| AGCGAGGA | -0.0282 |
| AGCTGTTC | -0.0871 |
| CTTTAGGC | 0.0491 |
| CCTAAGCA | -0.222 |
| AGCATTGA | -0.217 |
| CATGAGAA | -0.0868 |
| GAAGTGCA | -0.0226 |
| CGCGACGA | 0.154 |
| GACCTTTA | -0.0598 |
| AAATTTAA | -0.227 |
| CGCACTAA | 0.0751 |
| ATTCTTGA | -0.235 |
| AAAATACA | -0.123 |
| ACTTACCG | 0.289 |
| CGGAGATA | 0.177 |
| CGTTCTCA | -0.0254 |
| AGGCCACC | -0.146 |
| CCGATTGA | -0.127 |
| AGGTTGCA | -0.239 |
| ACTCAGTA | 0.00502 |
| ACTCTGTA | -0.0687 |
| AGGCCTGC | 0.0232 |

For quick reference, copied from above (block 2):
| Modification | mean fluorescence intensity [a.u.] |
| --- | --- |
| 2'F-ANA at 1 2 3 4 5 7 8 9 10 12 14 15 | 46.4 |
| 2'F-ANA at 1 4 5 6 9 10 13 15 | 45.6 |
| 2'F-ANA at 3 4 6 7 9 11 12 13 14 | 254 |
| 2'F-ANA at 2 3 5 7 8 11 12 13 | 165 |
| 2'F-ANA at 1 2 4 6 7 10 11 12 13 14 | 66.4 |
| 2'F-ANA at 3 6 7 9 10 11 14 | 378 |
| 2'F-ANA at 2 3 4 7 8 9 14 15 | 309 |
| 2'F-ANA at 2 3 4 5 6 9 10 12 14 15 | 64.3 |
| 2'F-ANA at 2 5 6 7 8 9 10 11 13 14 | 56.7 |
| 2'F-ANA at 1 3 4 6 7 11 | 159 |
| 2'F-ANA at 1 4 6 7 11 | 90.4 |
| 2'F-ANA at 3 4 6 7 8 10 13 14 | 170 |
| 2'F-ANA at 1 3 4 5 10 12 13 | 47.5 |
| 2'F-ANA at 3 5 6 7 10 11 | 55.5 |
| 2'F-ANA at 2 3 4 5 8 9 10 11 12 13 14 15 | 58.8 |
| 2'F-ANA at 1 2 3 6 7 8 10 11 | 65.6 |
